Experimental data gathered from unrelated publications.
Each line is one published result; not all experiments were run side by side. ± marks the error that the study gave. Square brackets hold non-standard residues; d marks the D form. Ends that are not written are not given here.
Protein farnesyltransferase: Protein farnesyltransferase (Homo sapiens, UniProt P49354+P49356)
CXCR4: C-X-C chemokine receptor type 4 (CXCR4, Homo sapiens, UniProt P61073)
SLC10A1: Hepatic sodium/bile acid cotransporter (SLC10A1, Homo sapiens, UniProt Q14973)
T1: RNA aptamer minimized 10-24; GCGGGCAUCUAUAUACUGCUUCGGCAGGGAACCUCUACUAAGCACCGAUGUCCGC
B1: UGT1A9 (Homo sapiens, UniProt O60656); chain GKLLVVPMDGSHWFTMRSVVEKLILRGHEVVVVMPEVSWQLGRSLNCTVKTYSTSYTLEDLDREFKAFAHAQWKAQVRSIYSLLMGSYNDIFDLFFSNCRSLFKDKKLVEYLKESSFDAVFLDPFDNCGLIVAKYFSLPSVVFARGILCHYLEEGAQCPAPLSYVPRILLGFSDAMTFKERVRNHIMHLEEHLLCHRFFKNALEIASEILQTPVTEYDLYSHTSIWLLRTDFVLDYPKPVMPNMIFIGGINCHQGKPLPMEFEAYINASGEHGIVVFSLGSMVSEIPEKKAMAIADALGKIPQTVLWRYTGTRPSNLANNTILVKWLPQNDLLGHPMTRAFITHAGSHGVYESICNGVPMVMMPLFGDQMDNAKRMETKGAGVTLNVLEMTSEDLENALKAVINDKSYKENIMRLSSLHKDRPVEPLDLAVFWVEFVMRHKGAPHLRPAAHDLTWYQYHSLDVIGFLLAVVLTVAFITFKCCAYGYRKCLGKKGRVKKAHKSKTH

Molecule	target or system	test	test system	conditions	how to read	measurement	result
Nc1nc2c(ncn2[C@@H]2O[C@H](COP(=O)(O)OP(=O)(O)OP(=O)(O)O)[C@@H](O)[C@H]2O)c(=O)[nH]1	T1, RNA aptamer minimized 10-24	ultrafiltration	–	apparent, added: GTP	–	Kd	300 nM
CC[C@H](C)[C@H](NC(=O)[C@H](CCC(N)=O)NC(=O)[C@H](CS)NC(=O)[C@@H](NC(=O)[C@H](Cc1c[nH]cn1)NC(=O)[C@H](CC(=O)O)NC(=O)[C@H](C)NC(=O)[C@H](CC(C)C)NC(=O)[C@@H](NC(=O)[C@@H](NC(=O)[C@H](CC(C)C)NC(=O)[C@H](CCCNC(=N)N)NC(=O)[C@H](Cc1c[nH]cn1)NC(=O)[C@@H](NC(=O)[C@H](CCCNC(=N)N)NC(=O)[C@@H]1CCCN1C(=O)[C@@H](NC(=O)[C@H](CCC(N)=O)NC(=O)CN)C(C)C)[C@@H](C)O)[C@@H](C)CC)[C@@H](C)O)[C@@H](C)CC)C(=O)N[C@@H](C)C(=O)N[C@H](C(=O)N[C@@H](CCC(N)=O)C(=O)N[C@@H](CC(=O)O)C(=O)N[C@@H](Cc1ccccc1)C(=O)N[C@@H](C)C(=O)N[C@@H](CCCNC(=N)N)C(=O)O)[C@@H](C)O	Nuclear receptor subfamily 1 group D member 1 (NR1D1, Homo sapiens, UniProt P20393)	NCoR peptide binding, competitor, TR-FRET	–	1 h, added: labelled NCoR 2040-2065 peptide	relative to: mutant over wild-type peptide	IC50 fold change	88.2
CLGL	Protein farnesyltransferase	enzyme activity, substrate, fluorimetric	peptide	3 µM, 30 min, added: 9 µM farnesyl diphosphate	relative to: dansyl-GCVLS (set to 1.0)	relative fluorescence increase	0
A[Phe(4-F)]R[Cha][hArg]Y (Phe(4-F) = N[C@@H](Cc1ccc(F)cc1)C(=O)O; Cha = N[C@@H](CC1CCCCC1)C(=O)O; hArg = N=C(N)NCCCC[C@H](N)C(=O)O)	Proteinase-activated receptor 1 (F2R, Homo sapiens, UniProt P25116)	AFM force spectroscopy	proteoliposomes	–	–	binding free energy	~-11.8 kcal/mol
CLLL	Protein farnesyltransferase	enzyme activity, substrate, fluorimetric	peptide	3 µM, 30 min, added: 9 µM farnesyl diphosphate	relative to: dansyl-GCVLS (set to 1.0)	relative fluorescence increase	< 0.05
O=C(O)c1cccc(/C=N/OCCCNCc2cc(=O)[nH]c(=O)[nH]2)c1	Uracil-DNA glycosylase (UNG, Homo sapiens, UniProt P13051)	–	–	–	relative to: additive fragment energy	binding free energy cooperativity	1.3 kcal/mol
Cc1cc(Cl)ccc1N=Cc1ccc(F)c(Oc2ccccc2)c1	Catenin beta-1, armadillo repeat region (CTNNB1, Homo sapiens, UniProt P35222)	STD NMR	–	0.5 mM, pH 7.4, 25 °C	–	STD amplification factor	3.64
CSCCNc1nc(SCCC(F)(F)F)nc2c1ncn2[C@@H]1O[C@H](COP(=O)([O-])OP(=O)([O-])C(Cl)(Cl)P(=O)([O-])[O-])[C@@H](O)[C@H]1O.[Na+].[Na+].[Na+].[Na+]	Uracil nucleotide/cysteinyl leukotriene receptor, short isoform (GPR17, Homo sapiens, UniProt Q13304, R283I)	frontal affinity chromatography-MS	mutated receptor IAM column	concentration not given	relative to: wild type column	breakthrough time change	24.1%
c1cc(CN2CCOCC2)ccc1CN1CCOCC1	CXCR4	binding, competition binding	MDA-MB-231	semi-quantitative screen, added: biotinylated TN14003	–	lowest effective concentration	> 1000 nM
CVLL	Protein farnesyltransferase	enzyme activity, substrate, fluorimetric	peptide	3 µM, 30 min, added: 9 µM farnesyl diphosphate	relative to: dansyl-GCVLS (set to 1.0)	relative fluorescence increase	< 0.05
CCCC1O[C@@H]2C[C@H]3[C@@H]4CCC5=CC(=O)C=C[C@]5(C)[C@H]4[C@@H](O)C[C@]3(C)[C@]2(C(=O)CO)O1 (some centres unmarked)	SLC10A1	inhibitor	HEK293 expressing NTCP	100 µM, 5 min, added: taurocholate 10 µM	relative to: no compound	taurocholate uptake	79.3 ± 6.4%
O=C(NCc1ccc(F)cc1)C1CCN(S(=O)(=O)c2cc(Cl)cc(Cl)c2)CC1	Na(+)/citrate cotransporter (Homo sapiens, UniProt Q86YT5)	inhibitor, item: citrate uptake	HepG2	10 µM, 30 min, preincubated then washed	relative to: control	remaining activity	< 5%
C[C@H](NC(=O)[C@H](Cc1ccccc1)NC(=O)[C@@H](NC(=O)[C@H](Cc1ccccc1)NC(=O)[C@H](C)NC(=O)[C@H](CCCNC(=N)N)N(C)C(=O)[C@@H]1CCCN1C(=O)[C@H](CCCNC(=N)N)NC(=O)CNC(=O)c1ccc2c(c1)C1(OC2=O)c2ccc(O)cc2Oc2cc(O)ccc21)[C@@H](C)O)C(=O)N[C@@H](CCC(=O)O)C(=O)NCC(N)=O	RAC-alpha serine/threonine-protein kinase (AKT1, Homo sapiens, UniProt P31749)	substrate, CE-LIF	–	25 µM, pH 7.0, 30 °C, enzyme 6 nM, added: ATP 1 mM	–	time to half phosphorylation	30 min
CN(Cc1ccncc1)Cc1ccc(CN(C)Cc2ccncc2)cc1	CXCR4	binding, competition binding	MDA-MB-231	semi-quantitative screen, added: biotinylated TN14003	–	lowest effective concentration	> 1000 nM
O=c1c(O)c(-c2ccc(O)c(O)c2)oc2cc(O)cc(O)c12	UDP-glucuronosyltransferase 1A9 (UGT1A9, Homo sapiens, UniProt O60656)	enzyme activity, inhibitor	–	50 µM	–	remaining activity	11.7%
CCCCC(=O)N(Cc1ccc(-c2ccccc2-c2nnn[nH]2)cc1)[C@H](C(=O)O)C(C)C	SLC10A1	inhibitor	HEK293 expressing NTCP	100 µM, 5 min, added: taurocholate 10 µM	relative to: no compound	taurocholate uptake	101 ± 3%
Nc1ncnc2c1ncn2[C@@H]1O[C@H](COP(=O)(O)OP(=O)(O)O)[C@@H](O)[C@H]1O	Kinesin heavy chain, motor domain 1-346 (Khc, Drosophila melanogaster, UniProt P17210)	FRET chase	–	25 °C, 0% glycerol, added: excess mant-dADP	–	dissociation rate constant	0.0043 ± 0.0005 s⁻¹
CCCc1ccc(Oc2ccccc2)c(O)c1	Enoyl-[acyl-carrier-protein] reductase [NADPH] FabI (Staphylococcus aureus, UniProt Q6GI75)	enzyme activity, inhibitor, progress curve kinetics	–	–	–	dissociation rate constant	0.000275 s⁻¹
B1 (UGT1A9)	O=C(c1ccccc1)c1ccc(O)cc1	steady-state kinetics	–	pH 7.4, 37 °C	–	Vmax/Km	68 µL/min/mg
CCC/C=C/CO	Chilo suppressalis CSP2	binding, competitive ligand, fluorescence competitive binding	–	highest concentration tested, pH 7.4, protein 2 µM, added: 1-NPN 2 µM	relative to: no ligand	remaining 1-NPN fluorescence	62.3 ± 1.75%
COC(=O)[C@H]1[C@H]2C[C@@H]3c4[nH]c5cc(OC)ccc5c4CCN3C[C@H]2C[C@@H](OC(=O)c2cc(OC)c(OC)c(OC)c2)[C@@H]1OC	SLC10A1	inhibitor	NTCP-HEK293	25 µM	relative to: without compound	taurocholate uptake	83.8 ± 8.3%
CCCCCC(C)=O	Chilo suppressalis CSP2	binding, competitive fluorescence displacement	–	30 µM, pH 7.4	–	fluorescence intensity	72.4 ± 2.93%
Nc1ncnc2c1ncn2[C@@H]1O[C@H](C(=O)N2CCN(CC(=O)Nc3cccc4c3CNC4=O)CC2)[C@@H](O)[C@H]1O	Poly [ADP-ribose] polymerase 1 (PARP1, Homo sapiens, UniProt P09874)	hydrogen-deuterium exchange MS	–	concentration not given, contact point peptides, added: single-strand break DNA	relative to: with over without compound	deuterium exchange delay	10 fold

Excerpt of the above:
Molecule	target or system	test	test system	conditions	how to read	measurement	result
CSCCNc1nc(SCCC(F)(F)F)nc2c1ncn2[C@@H]1O[C@H](COP(=O)([O-])OP(=O)([O-])C(Cl)(Cl)P(=O)([O-])[O-])[C@@H](O)[C@H]1O.[Na+].[Na+].[Na+].[Na+]	Uracil nucleotide/cysteinyl leukotriene receptor, short isoform (GPR17, Homo sapiens, UniProt Q13304, R283I)	frontal affinity chromatography-MS	mutated receptor IAM column	concentration not given	relative to: wild type column	breakthrough time change	24.1%
c1cc(CN2CCOCC2)ccc1CN1CCOCC1	CXCR4	binding, competition binding	MDA-MB-231	semi-quantitative screen, added: biotinylated TN14003	–	lowest effective concentration	> 1000 nM
CVLL	Protein farnesyltransferase	enzyme activity, substrate, fluorimetric	peptide	3 µM, 30 min, added: 9 µM farnesyl diphosphate	relative to: dansyl-GCVLS (set to 1.0)	relative fluorescence increase	< 0.05
